{"data": "Measurements pooled from the literature", "note": "Every numbered part comes from another study and shows a few of its results, in no order. Substitutions count along the parent as printed."}
{"data": "Series 1", "target": "Max-binding protein MNT, bHLH-zipper, MAX partner unstated (MNT, Homo sapiens, UniProt Q99583, residues 220-300)", "technique": "protein-binding microarray", "molecule type": "double-stranded DNA, one strand shown", "matrix": "in vitro", "concentration": "not given", "notes": "k-mer, scored over probes, only values ≥0.25", "direction": "higher = stronger binding", "Target sequence (chain)": "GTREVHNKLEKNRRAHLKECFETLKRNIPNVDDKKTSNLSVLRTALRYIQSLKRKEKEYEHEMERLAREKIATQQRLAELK"}
{"Sequence": "CACCCGCG", "E-score": 0.274}
{"Sequence": "AACATGCA", "E-score": 0.272}
{"Sequence": "ATCACGTG", "E-score": 0.494}
{"Sequence": "AGTCACAT", "E-score": 0.371}
{"Sequence": "CCCACCCG", "E-score": 0.333}
{"Sequence": "TGTGCACA", "E-score": 0.298}
{"Sequence": "CATACACG", "E-score": 0.401}
{"Sequence": "GAGCCCAC", "E-score": 0.262}
{"Sequence": "CATGTGCG", "E-score": 0.481}
{"Sequence": "ACACGCCA", "E-score": 0.305}
{"Sequence": "CCATGTGC", "E-score": 0.485}
{"Sequence": "ACGTGTGC", "E-score": 0.453}
{"Sequence": "ACGCGGCA", "E-score": 0.334}
{"Sequence": "ACGTGTCG", "E-score": 0.416}
{"Sequence": "ATAACACG", "E-score": 0.383}
{"Sequence": "ACATGCAA", "E-score": 0.281}
{"Sequence": "ACCTCACG", "E-score": 0.254}
{"Sequence": "CATGTACG", "E-score": 0.25}
{"Sequence": "ATAACATG", "E-score": 0.321}
{"Sequence": "CCCCGCAC", "E-score": 0.362}
{"Sequence": "AAGCGCAC", "E-score": 0.286}
{"Sequence": "ACATGGGT", "E-score": 0.353}
{"Sequence": "AGCGTGGG", "E-score": 0.401}
{"Sequence": "CACGTTAA", "E-score": 0.301}
{"Sequence": "ACCATGCG", "E-score": 0.447}
{"data": "Series 2", "target": "RNA binding protein fox-1 homolog 2, RRM domain, GST-SBP tag (RBFOX2, Homo sapiens, UniProt O43251-10, residues 100-194)", "technique": "RNA Bind-n-Seq", "molecule type": "RNA", "matrix": "in vitro", "concentration": "365 nM", "notes": "natural RNA segment, single round, ends assumed", "baseline": "no-protein control", "direction": "higher = stronger binding"}
{"Sequence": "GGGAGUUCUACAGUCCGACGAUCUCCAGAUUGAUUACUCAAGCAGACAGCACACGAAAUACUAUUUUUCUCCUAAUAUGCUGUUUCCAUUAUGACACAGCAGCUCCUUUGUAAGUACCAGGUCAUGUCCAUCCUGGAAUUCUCGGGUGCCAA", "RBNS enrichment (R)": 0.609}
{"Sequence": "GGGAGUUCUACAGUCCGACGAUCUUUUGGGACUUAUAUGAUUUUAAAUAUUUCAUAUUCUCCCUCCCACUCCUACUCUCCCUCCUUCCCUCUCUCCAUCCCUUCCUCCUACCUAAAGGAAUGGAAUGAUGCUGUGGAAUUCUCGGGUGCCAA", "RBNS enrichment (R)": 0.564}
{"Sequence": "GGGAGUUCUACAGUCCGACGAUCGCUCGUGUCUGACUCGAGCGGUAUCAGAACAGGGCUGGGAUGGAGUCUUCGUGUUUUGCACCCUGUGCAUUGCUAUAUUCACAAGUACCAACUGUAGGAGUCAGAGGUGUUGGAAUUCUCGGGUGCCAA", "RBNS enrichment (R)": 0.368}
{"Sequence": "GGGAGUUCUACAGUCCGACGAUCAGGCUGCCCGGGUUCCCAUUCUGCUUCUGCCACUUCCAGCUGUGUGGCUUUAGGUGAGCCUUCACCUUUUGGUGCCUUCGUUUCCUCAUUUAGCACCUACCUCCUAGAGCUGGAAUUCUCGGGUGCCAA", "RBNS enrichment (R)": 0.381}
{"Sequence": "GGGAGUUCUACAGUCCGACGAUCUUAUACGAAUGUUUUCUACCAGUGUGCUUGGGUUUGCCAUGAUGCGAGGCUGAGUUGCUGUAGCGUCUUGAUUCUCUCCCUGGGUCUGCGUUCCCUCCCCUGGGCCUGACUGGAAUUCUCGGGUGCCAA", "RBNS enrichment (R)": 0.583}
{"Sequence": "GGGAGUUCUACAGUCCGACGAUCCCAUAUGGAGGGCAAUUCAGCCAAUGUCCCUGAAGAAUUAAAAAAAAAAAAAUUCCACUAGACCACCAUCCCUUUUGUUUUGGGAUUUUUUUUCAACCUUUUCCAUUUGCUGGAAUUCUCGGGUGCCAA", "RBNS enrichment (R)": 0.787}
{"Sequence": "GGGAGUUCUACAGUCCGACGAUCGUCAAAGGAAAUCCCUUUCUUGGUGACGACUUAAAUCUGGGUUCCCUCAGACAUUGGGUUGCACCCCAACAAAUAUUAAAUGGCUUCUUCUUAAAGCCCAGAGAAAGAGGUGGAAUUCUCGGGUGCCAA", "RBNS enrichment (R)": 0.736}
{"Sequence": "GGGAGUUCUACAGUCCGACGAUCAUCUCUCCUGAGCAGAUUGCCUGAUGGGAUUGACAAGGAGGCUCAUUGGGUUGUGGUUUGAACAUCGAGGGUGUGAAGAAAAUGAAGCAGUGGCUAAAGAAAUCUUCUCCUGGAAUUCUCGGGUGCCAA", "RBNS enrichment (R)": 1.43}
{"data": "Series 3", "target": "Fragile X messenger ribonucleoprotein 1, C-terminal low-complexity region (Fmr1, Mus musculus, UniProt P35922)", "technique": "RNA Bind-n-Seq", "molecule type": "RNA", "matrix": "in vitro", "concentration": "200 nM", "notes": "whole 134-nt RNA, ends assumed", "added": "150 mM LiCl", "baseline": "input library", "direction": "higher = stronger binding", "each molecule": "7-deaza-guanosine replaces G"}
{"Sequence": "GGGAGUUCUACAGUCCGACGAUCUGGGAGGUGGAUUUUGAUUAUUUUUUUAGCUCAUUUCCAGGGGUGGGAAUUUUUUUUUAAUAUGUGUCAUGAAUAAAGUUGUUUUUGAAAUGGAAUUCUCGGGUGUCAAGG", "log2 enrichment": -0.647}
{"Sequence": "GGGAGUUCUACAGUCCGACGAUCUCACUUUAGAGGAGGAUCUGAUGGAUAUGGCAGUGGACGUGGAUUUGGGGAUGGCUAUAAUGGGUAUGGAGGAGGACCUGGAGGUGGCAAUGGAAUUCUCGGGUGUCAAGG", "log2 enrichment": 0.393}
{"Sequence": "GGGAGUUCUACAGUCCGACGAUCAAGUCCUGUGCUACACAUCGUAUGUACCGAAUCGGUGGUUUUUUUGGAAAAAAAGGAAAGUAUUAUGUUACGCCGUUCGGAUCUGCACUUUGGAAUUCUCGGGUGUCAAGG", "log2 enrichment": -2.08}
{"Sequence": "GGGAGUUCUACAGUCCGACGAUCUGGGAGGUGGAUUUUGUUUAUUUUUUUAGCUCAUUUCCAGGGGUGGGAAUUUUUUUUUAAUAUGUGUGAUGAAUAAAGUUGUUUUUGAAAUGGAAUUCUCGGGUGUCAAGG", "log2 enrichment": 0.475}
{"Sequence": "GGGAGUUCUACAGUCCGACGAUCAAGUCCUGUGCUACACAUCGUAUGUACCGAAUCGGUUUUUGGUUUUUGGUUUUUGGAAAGUAUUAUGUUACGCCGUUCGGAUCUGCACUUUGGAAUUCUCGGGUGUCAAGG", "log2 enrichment": -2.09}
{"Sequence": "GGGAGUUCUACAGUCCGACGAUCUCCUGUGCUACACAUCGUAUGUACCGAAUCGGAAAAAAAGGUUUUUUUGGUUUUUUUGGAAAGUAUUAUGUUACGCCGUUCGGAUCUGCAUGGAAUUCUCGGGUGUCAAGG", "log2 enrichment": -2.64}
{"Sequence": "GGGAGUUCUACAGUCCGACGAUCGUCCUGUGCUACACAUCGUAUGUACCGAAUCAAAUUUUUAAAUUUUUUUAAACCCAAAAAAGUAUUAUGUUACGCCGUUCGGAUCUGCACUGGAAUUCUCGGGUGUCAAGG", "log2 enrichment": -0.981}
{"Sequence": "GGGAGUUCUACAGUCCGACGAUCUCGGCUACACUGCCCGGAGAAUUCUCAAUGAGGAUGGCAGCCCUAACCUGGACUUCAAGCCUGAAGACCAGCCCCAUUUUGACAUCAAGGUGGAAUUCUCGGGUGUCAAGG", "log2 enrichment": -1.59}
{"data": "Series 4", "target": "ABI1, truncated, D143A, DHFR fusion (Arabidopsis thaliana)", "technique": "DHFR PCA, deep sequencing", "matrix": "yeast", "notes": "methotrexate growth selection, single substitutions", "added": "(+)-ABA 1.4 µM", "baseline": "wild-type fitted maximum", "direction": "higher = stronger binding", "starting sequence": "PYL1, truncated, DHFR fusion (Arabidopsis thaliana); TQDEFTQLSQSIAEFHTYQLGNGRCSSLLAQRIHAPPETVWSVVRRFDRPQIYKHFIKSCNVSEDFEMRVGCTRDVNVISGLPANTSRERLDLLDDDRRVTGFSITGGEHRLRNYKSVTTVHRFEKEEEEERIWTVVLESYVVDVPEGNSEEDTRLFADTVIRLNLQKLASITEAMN; partner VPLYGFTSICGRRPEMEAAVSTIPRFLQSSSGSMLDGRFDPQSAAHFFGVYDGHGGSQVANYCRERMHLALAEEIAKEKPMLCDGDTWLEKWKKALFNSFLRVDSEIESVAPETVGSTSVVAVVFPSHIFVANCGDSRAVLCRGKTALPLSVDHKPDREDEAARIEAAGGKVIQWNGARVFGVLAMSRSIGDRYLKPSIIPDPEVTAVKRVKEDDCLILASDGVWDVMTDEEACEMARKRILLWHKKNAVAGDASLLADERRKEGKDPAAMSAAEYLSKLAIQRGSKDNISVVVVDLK"}
{"Change": "G107R", "relative binding score": "0.836%"}
{"Change": "S11D", "relative binding score": "62%"}
{"Change": "K58V", "relative binding score": "-3.59%"}
{"Change": "V43K", "relative binding score": "-4.25%"}
{"Change": "R99N", "relative binding score": "7.6%"}
{"Change": "L93H", "relative binding score": "26.6%"}
{"Change": "F157T", "relative binding score": "9.99%"}
{"Change": "S27Q", "relative binding score": "21.2%"}
{"Change": "R163C", "relative binding score": "-7.23%"}
{"Change": "C25W", "relative binding score": "-7.62%"}
{"Change": "S9T", "relative binding score": "67.1%"}
{"Change": "S140Y", "relative binding score": "4.42%"}
{"Change": "G81W", "relative binding score": "6.42%"}
{"Change": "E109M", "relative binding score": "8.82%"}
{"Change": "Q167S", "relative binding score": "58.8%"}
{"Change": "T119A", "relative binding score": "-2.43%"}
{"Change": "R132T", "relative binding score": "80.7%"}
{"Change": "Y53A", "relative binding score": "-7.51%"}
{"Change": "F103K", "relative binding score": "0.257%"}
{"Change": "G71V", "relative binding score": "-5.65%"}
{"Change": "F103A", "relative binding score": "-5.4%"}
{"Change": "N177W", "relative binding score": "44.3%"}
{"Change": "R155W", "relative binding score": "-5.27%"}
{"Change": "D97C", "relative binding score": "40.9%"}
{"Change": "R123Q", "relative binding score": "68.2%"}
{"note": "A few entries again (series 1):"}
{"Sequence": "CCCACCCG", "E-score": 0.333}
{"Sequence": "TGTGCACA", "E-score": 0.298}
{"Sequence": "CATACACG", "E-score": 0.401}
{"Sequence": "GAGCCCAC", "E-score": 0.262}
{"Sequence": "CATGTGCG", "E-score": 0.481}
{"Sequence": "ACACGCCA", "E-score": 0.305}
{"Sequence": "CCATGTGC", "E-score": 0.485}
{"Sequence": "ACGTGTGC", "E-score": 0.453}
{"Sequence": "ACGCGGCA", "E-score": 0.334}
{"Sequence": "ACGTGTCG", "E-score": 0.416}
